Experimental data collected from several papers.
Parts stem from different laboratories: compare values within a part only.

Series 1
Target: Interferon regulatory factor 5, full length, phosphomimetic (IRF5, Homo sapiens, UniProt Q13568-2, residues 1-514, K96S/S451D/S453D/S456D/S462D)
Method: protein-binding microarray
Form: double-stranded DNA, one strand shown
Sample: in vitro
Concentration: 250 nM
Setting: 60-bp whole probe
With: salmon DNA 0.4 mg/ml
Reference: random background probes
Reading: higher = stronger binding
The log fluorescence of `GCCTAGCACTTAGGTCCCGGTCTCGGTTAGTGCTAGGTCTTGATTCGCTTGACGCTGCTG` is reported as 0.0729 z-score.
With `GCCTAGCACCTTCTTTTGCTAATTTTTTTGTGCTAGGTCTTGATTCGCTTGACGCTGCTG` the log fluorescence was 1.92 z-score.
`GCCTAGCACTCAGGTATCGGGTATCGGTTAGTGCTAGTCTTGATTCGCTTGACGCTGCTG` gave a log fluorescence of 6.58 z-score.

Single results of other studies
PABPC1L2 full length, GST fusion: PABPC1L2, full length, GST fusion (mouse, UniProt A0ABA7IW68)
TARDBP full length, His tag: TAR DNA-binding protein 43, full length, His tag (TARDBP, Homo sapiens, UniProt Q13148, residues 1-414)
`PhoQ, residues 284 288 289 292 302 303 HSSMNL` has a fold induction of 5.94 (PhoP, residues 12 14 15 18 19 TTLRV (Escherichia coli, UniProt P23836); Sort-seq, measured: YFP reporter; E. coli; PhoQ-PhoP variant library, with: 10 µM Mg2+; reference: high Mg2+ state, higher = stronger signaling).
For `ACAGAGG`, the 7-mer Z-score was 0.53 (PABPC1L2 full length, GST fusion; RNAcompete; RNA, in vitro; 20 nM, 7-mer, probes averaged, single round; reference: mean of 7-mers, higher = stronger binding).
`CAACCC`: “6-mer enrichment (R)” 0.945 (TARDBP full length, His tag; RNA Bind-n-Seq; RNA, in vitro; 20 nM, 6-mer, flanks averaged, single round, with: 150 mM LiCl; reference: input library, higher = stronger binding).
For `AAGCUCC`, the 7-mer Z-score was -0.18 (PABPC1L2 full length, GST fusion; RNAcompete; RNA, in vitro; 20 nM, 7-mer, probes averaged, single round; reference: mean of 7-mers, higher = stronger binding).
`CUUGAG`: “6-mer enrichment (R)” 1 (TARDBP full length, His tag; RNA Bind-n-Seq; RNA, in vitro; 20 nM, 6-mer, flanks averaged, single round, with: 150 mM LiCl; reference: input library, higher = stronger binding).
